Measured values collected from several papers.
Protocols differ between the studies behind these lines. “And” joins repeats or separate records; there may be more than shown. ± gives the spread as reported.
ALB: Albumin (ALB, Homo sapiens, UniProt P02768)

Under activity, COC(=O)C(Cc1cccc(OC)c1I)NC(=O)CN (stereo not drawn) is recorded as “inactive” (Kappa-type opioid receptor (OPRK1, Homo sapiens, UniProt P41145); binding; concentration not given).
Cc1occc(=O)c1[O-].[Cl-].[W+4].c1cc[cH-]c1.c1cc[cH-]c1 — result for “Stern-Volmer quenching constant”: 15100 L/mol (ALB; fluorescence quenching; 310 K).
The -TΔS of Nc1ncnc2c1ncn2[C@@H]1O[C@H](CO[P@](=O)(O)O[P@](=O)(O)O[P@@](=O)(O)S)[C@@H](O)[C@H]1O is reported as 2.03 kcal/mol (GUK1 (Homo sapiens, UniProt Q16774, R148A); binding, ITC; added: GMP).
For CC[C@H](C)[C@@H]1NC(=O)[C@H](CO)NC(=O)[C@@H]2CCCN2C(=O)[C@@H](NC(=O)CN)CSSC[C@@H]2NC(=O)CNC(=O)[C@H](C)NC(=O)[C@H](CC(C)C)NC(=O)[C@@H]3CSSC[C@@H](C(=O)NCC(=O)O)NC(=O)[C@H](Cc4ccccc4)NC(=O)CNC(=O)[C@H](CC(N)=O)NC(=O)[C@@H]4CCCN4C(=O)CNC(=O)[C@H](CSSC[C@H](NC(=O)[C@H](CCCNC(=N)N)NC(=O)[C@H](CCC(N)=O)NC(=O)[C@H](CCCNC(=N)N)NC(=O)[C@H](CCCCN)NC(=O)[C@H](C(C)C)NC(=O)[C@H](CO)NC(=O)[C@H](CC(N)=O)NC1=O)C(=O)N[C@@H](CCCCN)C(=O)N[C@@H](CCC(N)=O)C(=O)N[C@@H](CC(=O)O)C(=O)N[C@@H](CO)C(=O)N[C@@H](CC(=O)O)C(=O)N3)NC(=O)[C@H](C(C)C)NC2=O, the kon was 1.79e+06 ± 330000 M⁻¹ s⁻¹ (Low-density lipoprotein receptor-related protein 6, E1 domain (LRP6, Homo sapiens, UniProt O75581); binding, SPR; pH 7.5).
The linear DNA of O=c1nc(SCc2cc(F)cc(C(F)(F)F)c2)nc(SCc2ccc3sccc3c2)[nH]1 is reported as 1.18% (DNA topoisomerase 2-alpha (TOP2A, Homo sapiens, UniProt P11388); DNA cleavage; 31.25 µM, replicate 1).
For Cc1cccc(C(=O)Nc2nc3ccccc3[nH]2)c1, the displacement was 6 ± 3% (Adenosine receptor A2a (ADORA2A, Homo sapiens, UniProt P29274); binding, radioligand competition; 10 µM, added: [3H]ZM241385).
CCCCCCCCC(CO)CCCCCC (stereo not drawn) has a relative fluorescence of 71% (uncharacterized protein (Spodoptera exigua, UniProt F1CEY0); binding, 1-NPN competitive displacement; protein 2.0 µM, added: 1-NPN 20 µM; reference: 1-NPN without compound, lower = stronger binding).
With O=C(O)c1ccc(Nc2ncc3c(n2)-c2ccc(Cl)cc2C(c2c(F)cccc2F)=NC3)cc1 the remaining activity was 99% (SGK(h); kinase activity; 1 µM).
The bathochromic shift of OC[C@H]1O[C@@H](Oc2cc3c(O)cc(O)cc3[o+]c2-c2ccc(O)cc2)[C@H](O)[C@@H](O)[C@@H]1O is reported as 17 nm (ALB; binding, visible absorption; 50 µM, pH 7, added: HSA up to 200 µM; reference: without HSA).
Cc1cc(N)nc(-c2c(Cl)c3c4c(ncnc4c2F)N2CCN(C(=O)/C=C/c4nccc5c4CNCC5)C[C@H]2CO3)c1C(F)(F)F has a potency decrease of about 1800 fold (GTPase KRas, GDP-bound (KRAS, Homo sapiens, UniProt P01116, G13D); nucleotide exchange, inhibitor, HTRF; reference: 29).
CNC(=O)[C@@]12C[C@@H]1[C@@H](n1cnc3c(NC)nc(C#Cc4ccc(Cl)s4)nc31)[C@H](O)[C@@H]2O has an activity of 168% (Adenosine receptor A3 (ADORA3, Homo sapiens, UniProt P0DMS8); receptor activation, agonist; 10 µM; reference: control).
O=C(O)[C@@H]1CCCN1c1ncnc2[nH]cnc12 (racemic) — result for “log fold enrichment”: 0.0713 (DNA mismatch repair protein Msh6 (Homo sapiens, UniProt P52701); binding, affinity selection mass spectrometry; reference: other proteins in batch).
With O=C(Nc1cccc2c(=O)cc(-c3nnn[nH]3)oc12)c1ccc(OCCCCc2ccccc2)cc1 the inhibition was 2.89% and -10.2% and -3.28% and 10.7% (Volume-regulated anion channel subunit LRRC8C, part LRRC8A IL1 chimera (LRRC8C, Homo sapiens, UniProt Q8TDW0); ion current, inhibitor, whole-cell patch clamp; HCT LRRC8-/- cells, transfected; 0.1 µM, low ionic strength swelling, +100 mV).
O=C(COP(=O)(O)O)[C@@H](O)[C@H](O)[C@H](O)COP(=O)(O)O: “thermal stability ratio” 0.615 and 0.474 and 0.812 (Small ribosomal subunit protein uS5 (Homo sapiens, UniProt P15880); thermal proteome profiling, measured: RPS2; HepG2 cell lysate; concentration not given, 57 over 37 °C; reference: compound over control).
COc1cccc(F)c1-c1ccc(C(=O)NC[C@@H](N)C(=O)O)s1 has a Hill slope of 1.38 (Glutamate receptor ionotropic, NMDA 1, with GluN2D (Grin1, Rattus norvegicus, UniProt P35439); added: glutamate 300 µM).
With O=C(Nc1ccc2[nH]nc(-c3ccncc3)c2c1)[C@@H]1CCN(CC(=O)N2CCN(c3ccc(-c4ncccn4)cc3)CC2)C1 the normalized luminescence was 1.25 (Mitogen-activated protein kinase 1 (MAPK1, Homo sapiens, UniProt P28482); kinase activity, Kinase-Glo; concentration not given).
Cc1ccc(S(=O)(=O)[N](Nc2ccc([N+](=O)[O-])cc2[N+](=O)[O-])[Sn]([Cl])[Cl])cc1 has a selectivity ratio of 16.7 (Prostaglandin G/H synthase 2 (PTGS2, Homo sapiens, UniProt P35354); reference: COX-1 IC50 over COX-2 IC50).
Under “Gs protein activation”, CCCCC[C@H](O)/C=C/[C@H]1C(=O)C[C@H](O)[C@@H]1C/C=C\CCCC(=O)O is recorded as 101% (Prostaglandin D2 receptor (PTGDR, Homo sapiens, UniProt Q13258, M112A); agonist, ONE-GO BRET; 1.25 µM (1.25 µM); reference: wild-type receptor maximum).
For OC[C@H]1O[C@@H](Oc2cc3c(O)cc(O)cc3[o+]c2-c2ccc(O)c(O)c2)[C@H](O)[C@@H](O)[C@@H]1O, “binding entropy change” read 0.04 kJ/(mol·K) (ALB; van't Hoff analysis; concentration not given).
Nc1ncnc2c1ncn2[C@@H]1O[C@H](COP(=O)(O)OP(=O)(O)O)[C@@H](O)[C@H]1O: “binding enthalpy (ΔH)” -4.8 kcal/mol (Cell cycle histidine kinase CckA, CA domain (Caulobacter vibrioides, UniProt Q9X688); isothermal titration calorimetry; Caulobacter crescentus; concentration not given, 25 °C, added: without c-di-GMP).
With C=CC(=O)N1CCC(COCC(=O)N2CCN(c3nc(-c4cnc(N)nc4C(F)F)nc(N4CCOC[C@@H]4C)n3)CC2)CC1 the remaining binding was 36% (NT-3 growth factor receptor (NTRK3, Homo sapiens, UniProt Q16288); KINOMEscan; 1 µM).
Cc1cc(-c2ccnc3[nH]cc(F)c23)cc(F)c1[C@@]1(O)[C@H](C)CN(C2CCS(=O)(=O)CC2)C[C@@H]1C — result for “probe labelling inhibition”: 24% (Tyrosine-protein kinase JAK1 (JAK1, Homo sapiens, UniProt P23458); ATP/ADP probe binding, KiNativ; HEK293T lysate; 1 µM, Lys1 peptide domain 2).
With C=CC(=O)N1CCC[C@@H](n2nc(-c3ccc(Oc4ccccc4)cc3)c3c(N)ncnc32)C1 the remaining activity was 183% (BDNF/NT-3 growth factors receptor (NTRK2, Homo sapiens, UniProt Q16620); 10 µM).
Nc1ncnc2c1ncn2[C@@H]1O[C@H](COP(=O)(O)CP(=O)(O)OP(=O)(O)O)[C@@H](O)[C@H]1O has a calcium influx of 100% (P2X purinoceptor 1 (P2RX1, Homo sapiens, UniProt P51575, D97A); calcium influx; 10 µM; reference: ionomycin response).

A few entries again:
Nc1ncnc2c1ncn2[C@@H]1O[C@H](COP(=O)(O)CP(=O)(O)OP(=O)(O)O)[C@@H](O)[C@H]1O has a calcium influx of 100% (P2X purinoceptor 1 (P2RX1, Homo sapiens, UniProt P51575, D97A); calcium influx; 10 µM; reference: ionomycin response).
With O=C(Nc1cccc2c(=O)cc(-c3nnn[nH]3)oc12)c1ccc(OCCCCc2ccccc2)cc1 the inhibition was 2.89% and -10.2% and -3.28% and 10.7% (Volume-regulated anion channel subunit LRRC8C, part LRRC8A IL1 chimera (LRRC8C, Homo sapiens, UniProt Q8TDW0); ion current, inhibitor, whole-cell patch clamp; HCT LRRC8-/- cells, transfected; 0.1 µM, low ionic strength swelling, +100 mV).
